Published values gathered from unrelated publications.
Compare with care: the assays were run in different laboratories. Several values in a cell are separate wells, animals, samples, runs or records.

| Substance | target or system | assay | test system | conditions | endpoint | value |
| --- | --- | --- | --- | --- | --- | --- |
| NP (influenza A virus) | itself | SEC | – | – | subunits per oligomer | 3 |
| F ectodomain (Hendra virus) | itself | cryo-EM | – | – | subunits per oligomer | 9 and 3 |
| NA head domain (Influenza A virus H3N2) | itself | crystal structure | – | – | subunits per oligomer | 4 |
| NP (UniProt P03466) | itself | negative-stain electron microscopy | – | – | subunits per oligomer | 3 protomers per ring and 5 protomers per ring |
| HA soluble ectodomain, foldon (influenza A virus H1N1) | itself | SEC | – | – | subunits per oligomer | 3 |
| comFB (Vibrio cholerae) | itself | SEC-MALS | – | – | subunits per oligomer | 2 |
| neuraminidase N2 ectodomain tetramer (influenza A virus H3N2 A/Switzerland/9715293/2013) | itself | cryo-EM | – | – | subunits per oligomer | 4 |
| ADAVIKTLQPVSELL | human CD4 T cells | AIM | peptide | – | responding donors | 8% |
| gamma-KTx 2.2 (Mesobuthus martensii) | itself | crystal structure | – | – | subunits per oligomer | 4 |
| HIV-1 capsid CTD T188C, C188-C188 disulfide dimer (HIV-1) | itself | SEC-MALS | – | oxidised disulfide | subunits per oligomer | 2 |
| HA HA2  ectodomain (Influenza A virus H3N2) | itself | native gel | – | – | subunits per oligomer | 3 |
| HA ectodomain (influenza A virus H5N8) | itself | cryo-EM | – | – | subunits per oligomer | 6 |
| HA H10N8, HA1/HA2 (influenza A virus A/Jiangxi-Donghu/346/2013) | itself | crystal structure | – | – | subunits per oligomer | 3 |
| MPER/GlpF (HIV-1/Escherichia coli) | itself | negative stain EM | – | – | subunits per oligomer | 4 |
| UL10 (duck plague virus) | itself | western blot | – | – | subunits per oligomer | 3 |
| HA H6N1 mature, HA1/HA2 (influenza A virus A/Taiwan/2/2013) | itself | crystal structure | – | – | subunits per oligomer | 3 |
| L/P L1-P4 complex (Borna disease virus 1) | itself | SEC | – | – | subunits per oligomer | 2 |
| Argonaute (Clostridium perfringens) | itself | SEC | – | – | subunits per oligomer | 2 |
| RSV F/foldon soluble ectodomain S155C/S190F/V207L/S290C/D486H/E487Q/F488W/D489H (respiratory syncytial virus) | itself | SEC | – | – | subunits per oligomer | 3 |
| HA (influenza A virus) | itself | SEC | – | – | subunits per oligomer | > 9 HA monomers |
| S ectodomain, GCN4 trimerization motif R717S (Murine hepatitis virus) | itself | native MS | – | – | subunits per oligomer | 3 |
| FPQSAPHGV | – | AIM | peptide, CD8+ T cells from PBMC, human donors | dose not given | response magnitude per positive donor | 103 |
| integrase mature (HIV-1) | itself | negative stain electron microscopy | – | – | subunits per oligomer | 16 |

Excerpt of the above:
| Substance | target or system | assay | test system | conditions | endpoint | value |
| --- | --- | --- | --- | --- | --- | --- |
| comFB (Vibrio cholerae) | itself | SEC-MALS | – | – | subunits per oligomer | 2 |
| ADAVIKTLQPVSELL | human CD4 T cells | AIM | peptide | – | responding donors | 8% |
